Measured values gathered from unrelated publications.
Parts stem from different laboratories: compare values within a part only. Positions count from the first letter of the parent shown.

Sample 1 — read-out: peptide-MHC binding; form: peptide; concentration: concentration not given
Target: HLA class I histocompatibility antigen, A alpha chain, allele A*80:01 (Homo sapiens, UniProt P04439)
Molecule	binding
VLLISDPGL	inactive
HLTRVGPYL	inactive
LQNFCQHLV	inactive
MEDCPNEGV	inactive
MHYKLDEVL	inactive
RTDNGGWAH	inactive
WKAIGAYIL	inactive

Sample 2 — target: UBE2D2 UBC core domain (UniProt P62837); method: yeast two-hybrid; sample: yeast; notes: mostly zero background; relative to: not given; reading: higher = stronger interaction
UniProt P62837, sequence (whole entry, looked up): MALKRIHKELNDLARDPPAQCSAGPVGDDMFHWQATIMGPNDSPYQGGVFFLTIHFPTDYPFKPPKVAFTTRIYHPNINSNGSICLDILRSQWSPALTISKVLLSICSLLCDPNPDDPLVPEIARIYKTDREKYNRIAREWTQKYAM
B1: RNF150 RING domain (UniProt Q9ULK6); chain DKETESDFDNCAVCIEGYKPNDVVRILPCRHLFHKSCVDPWLLDHRTCPMCKMNILKALGIP
B2: MSL2 RING domain (UniProt Q9HCI7); chain LLPYFRQSLSCCVCGHLLQDPIAPTNSTCQHYVCKTCKGKKMMMKPSCSWCKDYEQFEENKQ
B3: UBE4A RING domain (UniProt Q14139); chain LQQQEEETYADACDEFLDPIMSTLMCDPVVLPSSRVTVDRSTIARHLLSDQTDPFNRSPLTMDQIRPNTELKEKIQRWLAERKQQKEQLE
B4: RNF112 RING domain (UniProt Q9ULX5); chain QPMAPRELPTCSICLERLRDPISLDCGHDFCIRCFSTHRLPGCEPPCCPECRKICKQKRGLR
Molecule	lacZ reporter activity
B1 (RNF150 RING domain)	16100
KRQCSDVDDICSICQAEFQKPILLICQHIFCEECMTLWFNREKTCPLCRTVISDHINKW (RNFT1 RING domain (UniProt Q5M7Z0))	0
B2 (MSL2 RING domain)	0
B3 (UBE4A RING domain)	2410
B4 (RNF112 RING domain)	0

Sample 3 — target: CCNA2, cyclin fold, Cln2 fusion (human); method: yeast growth competition, sequencing; sample: yeast; notes: strong parent motif; relative to: not given; reading: higher = stronger binding
Starting sequence: viral docking peptide; PGASRRLFGSSAD; partner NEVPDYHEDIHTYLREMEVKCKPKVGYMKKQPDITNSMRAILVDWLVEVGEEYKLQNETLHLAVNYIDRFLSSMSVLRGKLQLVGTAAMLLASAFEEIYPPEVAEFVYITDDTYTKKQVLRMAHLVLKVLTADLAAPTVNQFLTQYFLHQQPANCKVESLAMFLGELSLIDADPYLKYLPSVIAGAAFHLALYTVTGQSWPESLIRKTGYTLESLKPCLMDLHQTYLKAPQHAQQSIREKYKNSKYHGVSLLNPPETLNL
Substitution	normalised enrichment score
PGASRALFGSSAD [R6A]	0.657
PGAARRLFGSSAD [S4A]	4.08
PGASRRLFGSAAD [S11A]	3.51
PGASARLFGSSAD [R5A]	0.226
PAASRRLFGSSAD [G2A]	2.25
PGASARAFGSSAD [R5A L7A]	0.297
AGASRRLFGSSAD [P1A]	3.04
PGASRRLLGSSAD [F8L]	0.627
PGASKRLFGSSAD [R5K]	1.41

Further values, each from its own experiment
Substance	partner	method	notes	quantity	result
KRT14 (Homo sapiens, UniProt P02533)	KRT8 (Homo sapiens, UniProt P05787)	cross-linking MS	hits only	interaction screen	cross-linked

For quick reference, copied from above (sample 2):
Molecule	lacZ reporter activity
B4 (RNF112 RING domain)	0
